Published values collected from several papers.
Lines come from different studies, so protocols differ.
Organism: Escherichia coli

SMILES	test	system	conditions	MIC
CC1(C)[C@H](NC(=O)/C(=N\OCCN)c2nsc(N)n2)C(=O)N1OS(=O)(=O)O	agar dilution	16-1, ESBL-producing		8 µg/mL
COc1cc(C(=O)O)ccc1NC(=O)c1ccc(NC(=O)c2ccc(NC(=O)[C@H](Cc3c[nH]nn3)NC(=O)c3ccc(NC(=O)/C(C)=C/c4ccc(O)cc4)cc3)cc2)cc1	broth microdilution	ciprofloxacin-resistant		0.5 µg/mL
CC[C@H]1OC(=O)[C@H](C)[C@@H](O[C@H]2C[C@@](C)(OC)[C@@H](O)[C@H](C)O2)[C@H](C)[C@@H](O[C@@H]2O[C@H](C)C[C@H](N(C)C)[C@H]2O)[C@](C)(OC)C[C@@H](C)C(=O)[C@H](C)[C@@H](O)[C@]1(C)O		tolC		8 µg/mL
COc1ccc2ccc(O)c(/C=N/[C@H]3CCCC[C@H]3/N=C/c3c(C)cccc3O)c2c1	microbial growth, broth dilution		clinical isolate	> 40 µM
CCC(CC)c1cc(CCN2CCCN(S(=O)(=O)c3cccc4cccnc34)CC2)nc(-c2ccccn2)n1	microbial growth, broth dilution	ATCC25922		> 64 µg/mL
CC[C@H](C)[C@H](NC(=O)[C@@H](CCCNC(=N)N)NC(=O)[C@H](CCCNC(=N)N)NC(=O)[C@@H]1CCCN1C(=O)[C@@H]1CCCN1C(=O)[C@H](CCCCN)NC(=O)[C@@H]1CCCN1C(=O)[C@H](CCCNC(=N)N)NC(=O)[C@@H]1CCCN1C(=O)[C@H](CC(C)C)NC(=O)[C@H](Cc1ccc(O)cc1)NC(=O)[C@@H]1CCCN1C(=O)[C@@H]1CCCN1C(=O)[C@H](CCCCN)NC(=O)[C@H](CC(=O)O)NC(=O)[C@@H](N)C(C)C)C(=O)N[C@@H](Cc1ccc(O)cc1)C(=O)N[C@@H](CC(N)=O)C(=O)N[C@H](CCCNC(=N)N)C(N)=O	broth microdilution	ATCC 25922	18 h, 37 °C, 25% MHB2	8 µg/mL
COc1c(C)c(OC(=O)c2ccc3ccccc3c2)c(C)c(O)c1C(=O)/C=C/c1ccccc1	microbial growth, broth dilution	ATCC25922		5000 µg/mL
CCOc1c(NC(=O)c2ccc(NC(=O)c3ccc(NC(=O)[C@H](Cc4c[nH]nn4)NC(=O)c4ccc(NC(=O)/C(C)=C/c5ccc(O)cc5)cc4)cc3)c(OCC)c2O)ccc(C(=O)O)c1O	broth microdilution	ciprofloxacin-sensitive		0.016 µg/mL
CCCCCCCCCCCCCCCCCCn1cc(CN(CCC(=O)NCCN(CCC(=O)NCCN(CCC(=O)NCCN(C)C)CCC(=O)NCCN(C)C)CCC(=O)NCCN(CCC(=O)NCCN(C)C)CCC(=O)NCCN(C)C)CCC(=O)NCCN(CCC(=O)NCCN(CCC(=O)NCCN(C)C)CCC(=O)NCCN(C)C)CCC(=O)NCCN(CCC(=O)NCCN(C)C)CCC(=O)NCCN(C)C)nn1	microbial growth, broth dilution	ATCC25922		6 µg/mL
CCOc1c(NC(=O)c2ccc(NC(=O)c3ccc(NC(=O)[C@H](Cc4c[nH]nn4)NC(=O)c4ccc(NC(=O)/C(C)=C/c5ccc(O)cc5)cc4)cc3)c(OC)c2O)ccc(C(=O)O)c1O	broth microdilution	ciprofloxacin-sensitive		0.031 µg/mL
CCCCCCn1cc[n+](CCCCCCCCOc2cc(OCCCCCCCC[n+]3ccn(CCCCCC)c3)cc(OCCCCCCCC[n+]3ccn(CCCCCC)c3)c2)c1.[Br-].[Br-].[Br-]		MC4100		1 µM
C#CCO/N=C(\C(=O)N[C@@H]1C(=O)N(OS(=O)(=O)O)C1(C)C)c1csc(N)n1	agar dilution	16-1, ESBL-producing		0.25 µg/mL
Cc1n[nH]c2nc(N)[nH]c(=O)c2c1=O	microbial growth, broth dilution	BW25113	18 h	25 µg/mL
COc1ccc2ccc(O)c(/C=N/[C@H]3CCCC[C@H]3/N=C/c3ccccc3O)c2c1	microbial growth, broth dilution			> 40 µM
CN[C@H](CC(C)C)C(=O)N[C@H]1C(=O)N[C@@H](CC(N)=O)C(=O)N[C@H]2C(=O)N[C@H]3C(=O)N[C@H](C(=O)N[C@H](C(=O)NCC(N)=O)c4cc(O)cc(O)c4-c4cc3ccc4O)[C@H](O)c3ccc(c(Cl)c3)Oc3cc2cc(c3O[C@@H]2O[C@H](CO)[C@@H](O)[C@H](O)[C@H]2O[C@H]2C[C@](C)(NCc3ccc(OCc4cn(CC(=O)N[C@H](C(=O)N[C@@H](CCN)C(=O)N[C@H]5CCNC(=O)[C@H]([C@@H](C)O)NC(=O)[C@H](CCN)NC(=O)[C@H](CCN)NC(=O)[C@H](CC(C)C)NC(=O)[C@@H](CC(C)C)NC(=O)[C@H](CCN)NC5=O)[C@@H](C)O)nn4)c(OC)c3)[C@H](O)[C@H](C)O2)Oc2ccc(cc2Cl)[C@H]1O	broth microdilution	ATCC 25922	18 to 20 h	16 µg/mL
O=CCNCCOn1c(=O)n(OCCNCCO)c(=O)n(OCCNCCOn2c(=O)n(OCCNCCO)c(=O)n(OCCNCCO)c2=O)c1=O	microbial growth, broth dilution			2 µg/mL
CCCCCCCCn1cc[n+](CCCCCCOc2cc(OCCCCCC[n+]3ccn(CCCCCCCC)c3)cc(OCCCCCC[n+]3ccn(CCCCCCCC)c3)c2)c1.[Br-].[Br-].[Br-]		MC4100		1 µM
COc1cc(C(=O)Nc2ccc(C(=O)O)c(O)c2OC)ccc1NC(=O)c1ccc(NC(=O)[C@H](Cc2c[nH]nn2)NC(=O)c2ccc(NC(=O)/C(C)=C/c3ccc(O)cc3)cc2)cc1	broth microdilution	ciprofloxacin-resistant		0.5 µg/mL

SMILES	test	system	conditions	MIC
CC[C@H](C)[C@H](NC(=O)[C@H](CCC(N)=O)NC(=O)[C@H](Cc1ccccc1)NC(=O)[C@H](CC(N)=O)NC(=O)[C@H](CCCCN)NC(=O)[C@H](CC(C)C)NC(=O)[C@H](CCCNC(=N)N)NC(=O)[C@H](CCCCN)NC(=O)[C@H](CCCCN)NC(=O)[C@@H](NC(=O)[C@H](CO)NC(=O)[C@H](CCCCN)NC(=O)CNC(=O)[C@H](CC(C)C)NC(=O)[C@H](CCCCN)NC(=O)[C@H](CCCCN)NC(=O)[C@H](CC(C)C)NC(=O)[C@H](CCCCN)NC(=O)[C@H](CCCCN)NC(=O)[C@H](CCCNC(=N)N)NC(=O)[C@H](CC(C)C)NC(=O)CNC(=O)[C@@H](N)CCCNC(=N)N)[C@@H](C)CC)C(=O)NCC(=O)N[C@@H](Cc1ccccc1)C(=O)N[C@@H](CO)C(=O)N[C@H](C(=O)N1CCC[C@H]1C(=O)N[C@@H](Cc1ccccc1)C(=O)N[C@@H](C)C(=O)NCC(=O)O)C(C)C	broth microdilution	ATCC 25922	16 h, 37 °C, cation-adjusted Mueller-Hinton broth	8 µg/mL
CC[C@H]1OC(=O)[C@H](C)[C@@H](OC(=O)Cc2cccc3ccccc23)[C@H](C)[C@@H](O[C@@H]2O[C@H](C)C[C@H](N(C)C)[C@H]2O)[C@](C)(OC)C[C@@H](C)C(=O)[C@H](C)[C@@H](O)[C@]1(C)O		lpxC		> 32 µg/mL
C/C(=C\c1ccc(O)cc1)C(=O)Nc1ccc(C(=O)N[C@@H](Cc2c[nH]nn2)C(=O)Nc2ccc(C(=O)Nc3ccc(C(=O)Nc4ccc(C(=O)O)cc4)c(O)c3)cc2)cc1	broth microdilution	DSM 1116		0.25 µg/mL
C[C@H](CS)C(=O)Nc1cccc(-c2nn[nH]n2)c1	broth microdilution	DH5α pET28-lacUV5 control	200 µM	> 64 µg/mL
CC[C@H]1OC(=O)[C@H](C)[C@@H](OC(=O)Cc2ccc3c(c2)OCO3)[C@H](C)[C@@H](O[C@@H]2O[C@H](C)C[C@H](N(C)C)[C@H]2O)[C@](C)(OC)C[C@@H](C)C(=O)[C@H](C)[C@@H](O)[C@]1(C)O		DSM 30083	compound alone	> 64 µM
COc1cc(C(=O)Nc2ccc(C(=O)O)cc2)ccc1NC(=O)c1ccc(NC(=O)[C@H](Cc2c[nH]nn2)NC(=O)c2ccc(NC(=O)/C(C)=C/c3ccc(O)cc3)cc2)cc1	broth microdilution	ciprofloxacin-resistant		32 µg/mL
CCCCCCCCCC[N+](C)(C)CCCCCCCCOc1cc(OCCCCCCCC[N+](C)(C)CCCCCCCCCC)cc(OCCCCCCCC[N+](C)(C)CCCCCCCCCC)c1.[Br-].[Br-].[Br-]		MC4100		8 µM
CC[C@H]1OC(=O)[C@H](C)[C@@H](OC(=O)Cc2c(F)cccc2F)[C@H](C)[C@@H](O[C@@H]2O[C@H](C)C[C@H](N(C)C)[C@H]2O)[C@](C)(OC)C[C@@H](C)C(=O)[C@H](C)[C@@H](O)[C@]1(C)O		DSM 30083	added: colistin sulfate at 0.5 x MIC	2 µM
CC(C)C[C@@H]1NC(=O)[C@@H](CC(C)C)NC(=O)[C@H](CCN)NC(=O)[C@@H](NC(=O)[C@H](CCN)NC(=O)[C@@H](NC(=O)CCCCN=[N+]=[N-])[C@@H](C)O)CCNC(=O)[C@H]([C@@H](C)O)NC(=O)[C@H](CCN)NC(=O)[C@H](CCN)NC1=O	broth microdilution	ATCC 25922	18 to 20 h	8 µg/mL
COc1ccc2ccc(O)c(/C=N/[C@H]3CCCC[C@H]3/N=C/c3c(O)cccc3OC)c2c1	microbial growth, broth dilution			> 40 µM
CC[C@H]1OC(=O)[C@H](C)[C@@H](OC(=O)Cc2c(F)cc([N+](=O)[O-])cc2F)[C@H](C)[C@@H](O[C@@H]2O[C@H](C)C[C@H](N(C)C)[C@H]2O)[C@](C)(OC)C[C@@H](C)C(=O)[C@H](C)[C@@H](O)[C@]1(C)O		lpxC		32 µg/mL
COc1c(NC(=O)c2ccc(NC(=O)c3ccc(NC(=O)[C@H](CC#N)NC(=O)c4ccc(NC(=O)/C(C)=C/c5ccc(O)cc5)cc4)cc3)c(OC)c2O)ccc(C(=O)O)c1O	microbial growth, broth dilution	BW25113		0.063 µg/mL
CCCCCCCCCCCC(=O)Oc1c(C)c(OC)c2c(/C=C/c3ccccc3)c(CCCCCCCCCC)c(=O)oc2c1C	microbial growth, broth dilution	ATCC25922		5000 µg/mL
C=C[C@H]1CC1(NC(=O)C12CC(NC(=O)c3ccc(C#N)cc3)(C1)C2)C(=O)Nc1ccc(C(=O)Nc2ccc(C(=O)Nc3ccc(C(=O)O)cc3)c(O)c2OC(C)C)cc1 (some centres unmarked)	microbial growth	BW25113		0.2 µg/mL
CN[C@H](CC(C)C)C(=O)N[C@H]1C(=O)N[C@@H](CC(N)=O)C(=O)N[C@H]2C(=O)N[C@H]3C(=O)N[C@H](C(=O)N[C@H](C(=O)N[C@@H](CCCNC(=N)N)C(N)=O)c4cc(O)cc(O)c4-c4cc3ccc4O)[C@H](O)c3ccc(c(Cl)c3)Oc3cc2cc(c3O[C@@H]2O[C@H](CO)[C@@H](O)[C@H](O)[C@H]2O[C@H]2C[C@](C)(NCc3ccc(OCc4cn(CC(=O)N[C@H](C(=O)N[C@@H](CCN)C(=O)N[C@H]5CCNC(=O)[C@H]([C@@H](C)O)NC(=O)[C@H](CCN)NC(=O)[C@H](CCN)NC(=O)[C@H](CC(C)C)NC(=O)[C@@H](CC(C)C)NC(=O)[C@H](CCN)NC5=O)[C@@H](C)O)nn4)c(OC)c3)[C@H](O)[C@H](C)O2)Oc2ccc(cc2Cl)[C@H]1O	broth microdilution	ATCC 25922	18 to 20 h	16 µg/mL
COc1cc(C(=O)O)ccc1NC(=O)c1ccc(NC(=O)c2ccc(NC(=O)[C@H](Cc3c[nH]nn3)NC(=O)c3ccc(NC(=O)/C(C)=C/c4ccc(O)cc4)cc3)cc2)c(OC)c1O	broth microdilution	ciprofloxacin-resistant		0.5 µg/mL
CCOC(=O)Cc1n[nH]c2nc(N)[nH]c(=O)c2c1=O	microbial growth, broth dilution	BW25113	18 h	> 100 µg/mL

A few entries again:
SMILES	test	system	conditions	MIC
COc1cc(C(=O)O)ccc1NC(=O)c1ccc(NC(=O)c2ccc(NC(=O)[C@H](Cc3c[nH]nn3)NC(=O)c3ccc(NC(=O)/C(C)=C/c4ccc(O)cc4)cc3)cc2)cc1	broth microdilution	ciprofloxacin-resistant		0.5 µg/mL
CC[C@H]1OC(=O)[C@H](C)[C@@H](O[C@H]2C[C@@](C)(OC)[C@@H](O)[C@H](C)O2)[C@H](C)[C@@H](O[C@@H]2O[C@H](C)C[C@H](N(C)C)[C@H]2O)[C@](C)(OC)C[C@@H](C)C(=O)[C@H](C)[C@@H](O)[C@]1(C)O		tolC		8 µg/mL
COc1ccc2ccc(O)c(/C=N/[C@H]3CCCC[C@H]3/N=C/c3c(C)cccc3O)c2c1	microbial growth, broth dilution		clinical isolate	> 40 µM
CCC(CC)c1cc(CCN2CCCN(S(=O)(=O)c3cccc4cccnc34)CC2)nc(-c2ccccn2)n1	microbial growth, broth dilution	ATCC25922		> 64 µg/mL
CC[C@H](C)[C@H](NC(=O)[C@@H](CCCNC(=N)N)NC(=O)[C@H](CCCNC(=N)N)NC(=O)[C@@H]1CCCN1C(=O)[C@@H]1CCCN1C(=O)[C@H](CCCCN)NC(=O)[C@@H]1CCCN1C(=O)[C@H](CCCNC(=N)N)NC(=O)[C@@H]1CCCN1C(=O)[C@H](CC(C)C)NC(=O)[C@H](Cc1ccc(O)cc1)NC(=O)[C@@H]1CCCN1C(=O)[C@@H]1CCCN1C(=O)[C@H](CCCCN)NC(=O)[C@H](CC(=O)O)NC(=O)[C@@H](N)C(C)C)C(=O)N[C@@H](Cc1ccc(O)cc1)C(=O)N[C@@H](CC(N)=O)C(=O)N[C@H](CCCNC(=N)N)C(N)=O	broth microdilution	ATCC 25922	18 h, 37 °C, 25% MHB2	8 µg/mL
